Published values collected from several papers.
± gives the spread as reported.
EPHX2: Bifunctional epoxide hydrolase 2 (EPHX2, Homo sapiens, UniProt P34913)
TRPA1: Transient receptor potential cation channel subfamily A member 1 (TRPA1, Homo sapiens, UniProt O75762)
PGR: Progesterone receptor (PGR, Homo sapiens, UniProt P06401)
CHRM2: Muscarinic acetylcholine receptor M2 (CHRM2, Homo sapiens, UniProt P08172)

Compound | target | test | test system | conditions | how to read | quantity | value
CCOC(=O)CCN1CCN(C(=S)c2ccc(-c3cc(Cl)ccc3Cl)o2)CC1 | NPR2 (Homo sapiens, UniProt P20594) | HTRF, item: cGMP | HEK293 overexpressing GC-B | with: subthreshold CNP | relative to: saturating CNP | Emax | 73%
COC(=O)c1cccc([C@@H]2C[C@H]2NC2CCC2)c1 | Lysine-specific histone demethylase 1A, with CoREST (KDM1A, Homo sapiens, UniProt O60341) | inhibitor, LC-MS |  |  | relative to: total FAD species | relative N-formyl-FAD adduct | 4%
CNC(=O)C1CCCN(C(=O)c2ccc(NC(=O)NC34CC5CC(C)(CC(C)(C5)C3)C4)cc2)C1 (centres unmarked) | EPHX2 |  |  |  |  | lipophilic ligand efficiency | 6.61
O=C(O)c1ccc(/C=C2\SC(=S)N(Cc3cccc(C(F)(F)F)c3)C2=O)cc1 | NLRP1 (Homo sapiens, UniProt Q9C000) | inhibitor |  | 1 µM |  | ATPase activity | no effect
CC(C)(C)CCN1C[C@@H]2[C@@H](CNC(=O)c3cc(Cl)cc(Cl)c3)[C@@H]2C1.Cl | CACNA1C (Oryctolagus cuniculus, UniProt P15381) | whole-cell patch clamp | HEK-293T, transfected |  |  | Hill slope | 0.8 ± 0.11
CC(C)CC(NC(=O)C(NC(=O)NC(C(=O)O)C(C)C)C1CCNC(=N)N1)C(=O)NCCCNC(C(=O)O)C(OC1OC(CN)C(O)C1O)C1OC(n2ccc(=O)[nH]c2=O)C(O)C1O (centres unmarked) | mraY (Aquifex aeolicus, UniProt O66465, N255A) | ITC |  | N255A mutant |  | ΔS | 10.1 ± 1.1 cal/mol/K
C=C1CN(S(=O)(=O)c2ccc(C)cc2)CCCN(Cc2ccccc2)CCCN(S(=O)(=O)c2ccc(C)cc2)C1 | DnaJ homolog subfamily C member 3 (DNAJC3, Homo sapiens, UniProt Q13217) | SILAC mass spectrometry | SUP-T1, crude membrane fraction | 10 µM, 17 h, forward labelling | relative to: DMSO over compound | protein level ratio | 2.16
CNc1ccccc1C(=O)O[C@H]1C[C@H](n2cnc3c(N)ncnc32)O[C@@H]1COP(=O)(O)OP(=O)(O)O | Unconventional myosin-Va (Gallus gallus, UniProt Q02440, D297C/G292C/I296C/S293C/V295G) | stopped-flow FRET |  | 4 °C, with: MgCl2 2 mM |  | association rate constant | 1.56e+06 ± 130000 M⁻¹ s⁻¹
CSCC[C@H](NC(=O)[C@H](CCCCN)NC(=O)[C@@H]1CCCN1C(=O)[C@H](CCC(=O)O)NC(=O)[C@H](CO)NC(=O)[C@H](CCCNC(=N)N)NC(=O)[C@H](C)NC(=O)[C@H](CS)NC(=O)CNC(=O)[C@@H](NC(=O)[C@@H]1CCCN1C(=O)[C@H](CC(N)=O)NC(=O)[C@@H](N)C(C)C)[C@@H](C)O)C(=O)N[C@@H](CO)C(N)=O | WDR5 (Homo sapiens, UniProt P61964) | binding, BLI |  |  |  | koff | 0.0053 s⁻¹
CC12CC3CC(C)(C1)CC(NC(=O)Nc1ccc(C(=O)N4CCCC(C(N)=O)C4)cc1F)(C3)C2 (centres unmarked) | EPHX2 |  |  |  |  | lipophilic ligand efficiency | 7.09
CCCC[C@H](C)/C=C(C)/C=C/C(=O)O | TRPA1 | ion current, inhibitor, cell-attached single-channel patch clamp | HEK-293T | 5 µM, -60 mV, with: 100 µM AITC | relative to: basal | open probability | 17 fold
FC(F)(F)Oc1ccc(/N=c2\oc3ccccc3cc2-c2ccccc2)cc1 | PTGS1 (Ovis aries, UniProt P05979) | enzyme activity, inhibitor |  | from IC50, T 300 K |  | binding free energy | -11.2 kcal/mol
C=C1C(=O)OC2C1CCC(C)=C1CCC(C)(OC(=O)CCCCCCCCCCCNC(=O)CCCCC3SCC4NC(=O)NC43)C12 (centres unmarked) | RAB2A (Homo sapiens, UniProt P61019) | competitive pull-down LC-MS/MS | M9-ENL1 cell lysate | with: probe 10 µM | relative to: MCL-treated control | enrichment ratio | 7 fold
COc1ccc(/N=N/c2ccc(OC[C@@H](O)CNC(C)C)cc2)cc1 | ADRB1 (Homo sapiens, UniProt P08588) | competitive binding confocal microscopy | SNAP-ADRB1 cells | with: alprenolol-green | relative to: dark over illuminated | IC50 ratio | 178 fold
C=CC(=O)N1C[C@H](C)N(c2nc(OC[C@@]34CCCN3C[C@H](F)C4)nc3c(F)c(-c4ccc(F)c5sc(N)c(C#N)c45)c(C(F)(F)F)cc23)C[C@H]1C | GTPase KRas, GppNHp-bound (KRAS, Homo sapiens, UniProt P01116, C118S/G12C) | MALDI-TOF MS |  | 15 min, GppNHp-loaded |  | covalent modification | 100%
CCCCCCCCCCCCNP(=O)(Oc1ccccc1)O[C@@H]1O[C@H](CO)[C@@H](O)[C@H](O)[C@H]1F (mixture of isomers) | GBA1 (Homo sapiens, UniProt P04062) | enzyme activity, irreversible inhibitor |  | pH 5.5, 37 °C, with: 2,4-dinitrophenyl beta-D-glucopyranoside |  | kinact/Ki | 3170 M⁻¹ s⁻¹

Compound | target | test | test system | conditions | how to read | quantity | value
CCCCCCCCCCSc1nc2c([nH]1)c(=S)n(C)c(=S)n2C | PGR | reporter gene, antagonist, MMTV-luciferase | T47D/A1-2 | 10 µM, 24 h, with: 5 nM progesterone | relative to: maximal activity | remaining activity | 66%
Cn1sc(=O)n(Cc2ccccc2)c1=O | Bacteroides Pif1 helicase | ssDNA binding, fluorescence EMSA |  | with: dT12 |  | inhibitory concentration | 7.8 µM
O=C(Nc1ccc(OC(F)(F)F)cc1)N1CCC(Cc2cccc(Oc3ccc(C(F)(F)F)cn3)c2)CC1 | FAAH (Homo sapiens, UniProt O00519) | enzyme activity, inhibitor |  |  |  | kinact | 0.000367 s⁻¹
C[C@H](NC(=O)CNC(=O)[C@@H]1CSSC[C@H](NC(=O)[C@H](C)NC(=O)CN)C(=O)N[C@@H](CCCNC(=N)N)C(=O)N[C@@H](CCCNC(=N)N)C(=O)N[C@@H](CCC(=O)O)C(=O)N[C@@H]([C@@H](C)O)C(=O)N[C@@H](C)C(=O)N[C@@H](Cc2c[nH]c3ccccc23)C(=O)N[C@@H](C)C(=O)N1)C(=O)O | Integrin alpha-IIb/beta-3 (Homo sapiens, UniProt P05106+P08514) | binding to coated wells |  | concentration not given |  | binding | no binding
Cc1cc2c(NC(=O)N[C@@H]3CC(C)(C)Oc4cc(C(F)(F)F)ccc43)cccc2cn1 | TRPA1 | cell-based |  | no activity up to value |  | activity | > 100 µM
CC(C)CCSc1nc2c([nH]1)c(=S)n(C)c(=O)n2C | PGR | reporter gene, antagonist, MMTV-luciferase | T47D/A1-2 | 10 µM, 24 h, with: 5 nM progesterone | relative to: maximal activity | remaining activity | 35%
C=C1C(=O)O[C@@H]2[C@H]3C(CO)=CC(=O)C3=C(C)C[C@H](OC(=O)Cc3ccc(O)cc3)[C@@H]12 | MAL12 (Saccharomyces cerevisiae S288c, UniProt P53341) | 3D fluorescence |  | 65.22 µM |  | fluorescence decrease | 72.1%
CC(=O)C12NC(C)(C)CC1(C)C(=O)C1=C2c2c(c3c4n2C(C)(C)CC2=C4C4(CC(C)(C)NC(C)(C4)C2=O)CC3(C)C)C(=O)C(C)(C)N1 (single isomer, unassigned; (-)) | OPRD1 (Homo sapiens, UniProt P41143) | agonist, cAMP | CHO | concentration not given |  | agonist activity | inactive
CCCCOc1ccc(C(=O)OCC[N+]2(C)CC=CCC2)cc1 (centres unmarked) | CHRM2 | recovery of [3H]NMS binding after washing | membranes | 100 µM |  | dissociation half-time | 0.2 ± 0.1 h
CSCC[C@H](NC(=O)[C@H](CO)NC(=O)[C@@H](NC(=O)[C@H](CCC(N)=O)NC(=O)[C@@H](CCCNC(=N)N)NC(=O)[C@@H](CCCNC(=N)N)NC(=O)[C@@H](CCCCN)NC(=O)[C@@H](CCCNC(=N)N)NC(C)=O)[C@@H](C)O)C(=O)N[C@H](C(=O)N[C@@H](CC(=O)O)C(=O)N[C@@H](Cc1ccccc1)C(=O)N[C@@H](Cc1ccc(O)cc1)C(=O)N[C@@H](Cc1c[nH]cn1)C(=O)N[C@@H](CO)C(=O)N[C@H](CCCCN)C(=O)N[C@H](CCCNC(=N)N)C(=O)N[C@H](CCCNC(=N)N)C(N)=O)[C@@H](C)O | PCNA (Homo sapiens, UniProt P12004) | isothermal titration calorimetry |  | concentration not given, pH 7.4, 25 °C, 300 mM NaCl, with: p21 peptide |  | binding stoichiometry | 0.78 ± 0.02
CCOC(=O)CC[C@@H](NC(=O)[C@@H](NC(=O)c1cn(-c2ccc(F)cc2)nc1-c1cccc(C)c1)C(C)C)C(=O)OCC | NOD2 (Homo sapiens, UniProt Q9HC29) | NF-kB reporter gene, agonist | HEK-Blue cells expressing NOD2 | 10 µM, 16 h |  | activation | inactive
Cc1ccc(C(=O)Nc2ccc(CP(=O)(O)O)cc2CP(=O)(O)O)cc1NC(=O)c1cccc(NC(=O)Nc2cccc(C(=O)Nc3cc(C(=O)Nc4ccc(CP(=O)(O)O)cc4CP(=O)(O)O)ccc3C)c2)c1 | F11 (Homo sapiens, UniProt P03951) | enzyme activity, inhibitor |  | 100 µM, with: S-2366 substrate |  | Km | 280 ± 90 µM
CC1(C)CCN(Cc2ccc(C(=O)NC[C@]3(O)CCCN(c4cc(NCc5ccccc5)ncn4)C3)c(O)c2)CC1 | KIT (Homo sapiens, UniProt P10721) | kinase activity, radiometric |  | 10 µM, with: 10 µM ATP |  | remaining activity | 101%
COc1ccc(NS(=O)(=O)c2cccc(/C=C/C(=O)NO)c2)cc1 | HDAC6 (Homo sapiens, UniProt Q9UBN7) | enzyme activity, inhibitor |  |  | relative to: belinostat IC50 over compound IC50 | potency ratio | 3.71
C=CCn1c(=O)c2ccccc2n2c(SCC(=O)Nc3ccc(NC(C)=O)cc3)nnc12 | CHRM2 | allosteric modulator |  | with: NMS and EC80 iperoxo |  | cooperativity factor | 5.4
NC(=O)C1CCCCNC(=O)C(CCCNC(=O)c2cnccn2)NC(=O)C(Cc2ccco2)NC(=O)C(CC2CC2)NC(=O)C=CC(=O)N1 (centres unmarked) | MAP2K6 (Homo sapiens, UniProt P52564) | DNA-templated library selection |  | one selection round |  | enrichment factor | 1

Repeated from above:
Compound | target | test | test system | conditions | how to read | quantity | value
Cn1sc(=O)n(Cc2ccccc2)c1=O | Bacteroides Pif1 helicase | ssDNA binding, fluorescence EMSA |  | with: dT12 |  | inhibitory concentration | 7.8 µM
O=C(Nc1ccc(OC(F)(F)F)cc1)N1CCC(Cc2cccc(Oc3ccc(C(F)(F)F)cn3)c2)CC1 | FAAH (Homo sapiens, UniProt O00519) | enzyme activity, inhibitor |  |  |  | kinact | 0.000367 s⁻¹
C[C@H](NC(=O)CNC(=O)[C@@H]1CSSC[C@H](NC(=O)[C@H](C)NC(=O)CN)C(=O)N[C@@H](CCCNC(=N)N)C(=O)N[C@@H](CCCNC(=N)N)C(=O)N[C@@H](CCC(=O)O)C(=O)N[C@@H]([C@@H](C)O)C(=O)N[C@@H](C)C(=O)N[C@@H](Cc2c[nH]c3ccccc23)C(=O)N[C@@H](C)C(=O)N1)C(=O)O | Integrin alpha-IIb/beta-3 (Homo sapiens, UniProt P05106+P08514) | binding to coated wells |  | concentration not given |  | binding | no binding
Cc1cc2c(NC(=O)N[C@@H]3CC(C)(C)Oc4cc(C(F)(F)F)ccc43)cccc2cn1 | TRPA1 | cell-based |  | no activity up to value |  | activity | > 100 µM
